Assay results gathered from unrelated publications.
Lines come from different studies, so protocols differ. Numbers after ± are the reported error. Converted amounts (≈) assume the structure as drawn.

Sequences of proteins named here, by UniProt entry; tags and fusion partners are left off.
UniProt Q13470, whole entry: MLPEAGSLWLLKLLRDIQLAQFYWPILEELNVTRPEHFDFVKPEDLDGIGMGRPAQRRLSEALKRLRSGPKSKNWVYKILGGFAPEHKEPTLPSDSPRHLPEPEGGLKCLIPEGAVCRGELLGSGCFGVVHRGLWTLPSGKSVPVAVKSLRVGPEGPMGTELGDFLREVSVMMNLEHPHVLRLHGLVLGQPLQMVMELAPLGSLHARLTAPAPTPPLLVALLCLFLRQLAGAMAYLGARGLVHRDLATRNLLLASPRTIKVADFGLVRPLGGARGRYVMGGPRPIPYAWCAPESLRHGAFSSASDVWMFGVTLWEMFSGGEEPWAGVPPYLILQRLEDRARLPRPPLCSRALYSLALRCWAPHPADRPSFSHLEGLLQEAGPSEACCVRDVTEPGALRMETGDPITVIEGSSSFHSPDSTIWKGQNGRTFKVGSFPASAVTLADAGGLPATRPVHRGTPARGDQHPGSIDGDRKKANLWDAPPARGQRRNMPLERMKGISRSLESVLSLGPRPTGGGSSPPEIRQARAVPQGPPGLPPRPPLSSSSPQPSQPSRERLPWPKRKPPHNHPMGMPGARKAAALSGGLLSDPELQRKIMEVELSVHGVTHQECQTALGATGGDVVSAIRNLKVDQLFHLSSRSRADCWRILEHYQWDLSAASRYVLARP

O=C(N/N=C/c1cc([N+](=O)[O-])ccc1O)c1ccc(O)cc1O — reduction of 13C incorporation (PHGDH human; de novo serine synthesis, inhibitor, LC-HRMS isotope tracing, refers to: serine and glycine; SK-OV-3 GFP knockout control; 37 µM, 24 h, with: U-13C-glucose; reference: untreated): > 50%
CCCCCCC1c2ccc(O)cc2Oc2cc(O)ccc21 — MIC (Acinetobacter baumannii; ATCC 9955; with: NAB7061 4 µg/mL): 4.7 µg/mL (≈ 15.8 µM)
CC#C/C(=N\OC[C@H]1COCCN1)c1ccc2ncnc(Nc3ccc(OCc4cccc(F)c4)c(Cl)c3)c2c1 — inhibition (TNK1 (Homo sapiens, UniProt Q13470); kinase activity; 10 µM): 5.7%
C#Cc1ccc2c(c1)C(c1ccccc1F)=N[C@H](C)c1c(-c3nc(C(C)C)no3)ncn1-2 — inhibition (GABA-A receptor benzodiazepine site, rat; radioligand binding; brain homogenate; concentration not given, primary screen, with: [3H]flunitrazepam): > 50%
CSc1nc(Cl)cc(Sc2nnc(-c3cc(C(F)(F)F)cc(C(F)(F)F)c3)[nH]2)n1 — MIC (Acinetobacter baumannii; ATCC 9955; with: NAB7061 4 µg/mL): 1.5 µg/mL (≈ 3.18 µM)
Cc1ccc(S(=O)(=O)N(C)CC(=O)N(Cc2ccc(C3CCCCC3)cc2)c2ccc(C(=O)O)c(O)c2)cc1 — Stat3 DNA-binding activity (STAT3; EMSA; NIH3T3/v-Src, PANC-1, MDA-MB-231; 50 µM, 24 h): inhibited
CC1=C(c2ccc(F)cc2)S(=O)(=O)N=C1N1CCC(N2CCCCC2)CC1 — inhibition (AAC(3)-IV Escherichia coli; acetyltransferase activity, inhibitor; concentration not given): no inhibition
CCN1CCN(Cc2ccc(NC(=O)c3ccc(C)c(/C=C/c4cnc5[nH]ccc5c4OC)c3)cc2C(F)(F)F)CC1 — log2 fold change (FCHSD1-BRAF fusion; kinase-CDC37 interaction, cell-based kinome screen; 5 µM; reference: vehicle): 0.051
CCN(CC)C(=O)Oc1ccc(C(=O)Nc2cccc3cc[nH]c23)cc1 — current response (muscle nicotinic acetylcholine receptor α1β1γδ; modulator, two-electrode voltage clamp; Xenopus oocytes; 20 µM, with: 1 µM acetylcholine; reference: agonist alone): 100 ± 3.3%
CCCN1CCN(c2ccc3c(c2)C2CC3CCN2C(=O)OCc2ccccc2)CC1 (stereo not drawn) — Ki (peripheral benzodiazepine receptor; radioligand binding): > 10000 nM
CC(C)Cc1nnc2c(C(=O)NC3c4ccccc4-c4ccccc43)cccn12 — IC50 ratio (RNA polymerase Δω, Escherichia coli; enzyme activity; reference: mutant over wild type): 6
O=C(C1CC1)N1CC2CC(C1)N2 — EC50 (dopamine release; [3H]dopamine release, agonist; rat, striatal synaptosomes): 140 nM

Excerpt of the above:
C#Cc1ccc2c(c1)C(c1ccccc1F)=N[C@H](C)c1c(-c3nc(C(C)C)no3)ncn1-2 — inhibition (GABA-A receptor benzodiazepine site, rat; radioligand binding; brain homogenate; concentration not given, primary screen, with: [3H]flunitrazepam): > 50%
CSc1nc(Cl)cc(Sc2nnc(-c3cc(C(F)(F)F)cc(C(F)(F)F)c3)[nH]2)n1 — MIC (Acinetobacter baumannii; ATCC 9955; with: NAB7061 4 µg/mL): 1.5 µg/mL (≈ 3.18 µM)
